Measured values collected from several papers.
Protocols differ between the studies behind these lines. ± marks the error that the study gave. Values after ≈ are worked out from the molar mass of the structure shown.
Organism: HIV-1

COc1cc(-c2oc3cc(O)cc(O)c3c(=O)c2O[C@@H]2O[C@H](CO[C@@H]3O[C@@H](C)[C@H](O)[C@@H](O)[C@H]3O)[C@@H](O)[C@H](O)[C@H]2O)ccc1O  IC50 (viral infection; TZM-bl, NL4-3 (CXCR4-tropic); 48 h): > 100 µM
COc1cc(/C=N/Nc2ccc(S(=O)(=O)Nc3ccccc3C(=O)O)cc2[N+](=O)[O-])ccc1O  EC50 (viral cytopathic effect, MTT; MT4, IIIB): > 10 µM
CCCC(=O)OCSc1ccccc1C(=O)NCCn1ccc(=O)c2cc(F)ccc21  EC50 (virus-induced cytopathic effect, inhibitor, XTT; CEM-SS, RF; 6 days): 0.56 ± 0.32 µM
COc1ccnc2[nH]cc(C(=O)C(=O)N3CCN(C(=O)c4ccccc4)C[C@H]3C)c12  IC50 (viral replication, inhibitor, pseudovirus neutralization; TZM-bl, 3718.v3.c11; 48 h): 0.378 µM
CCCC(=O)OCSc1ccccc1C(=O)NCCCn1ccc(=O)c2cc3c(cc21)OCO3  EC50 (virus-induced cytopathic effect, inhibitor, XTT; CEM-SS, RF; 6 days): 1.93 ± 0.98 µM
C[C@@H]1O[C@@H](OC[C@H]2O[C@@H](Oc3cc4c(O)cc(O)cc4[o+]c3-c3cc(O)c(O)c(O)c3)[C@H](O)[C@@H](O)[C@@H]2O)[C@H](O)[C@H](O)[C@H]1O  IC50 (viral infection; TZM-bl, NL4-3 (CXCR4-tropic); 48 h): 34.9 µM
O=C(N/N=C/c1c(O)ccc2ccccc12)c1cc[nH]n1  EC50 (viral cytopathic effect, MTT; MT4, IIIB): > 14 µM
CCCC(=O)OCSc1ccccc1C(=O)NCCn1ccc(=O)c2cc(C(F)(F)F)ccc21  EC50 (virus-induced cytopathic effect, inhibitor, XTT; CEM-SS, RF; 6 days): 3.9 ± 1.02 µM
COc1cc(/C=C/C(=O)O)ccc1O  IC50 (viral infection; TZM-bl, BaL (CCR5-tropic); 48 h): > 100 µM
O=C1C(O)=Cc2ccccc2/C1=N\Nc1ccc(Cl)cc1  EC50 (viral cytopathic effect, MTT; MT4, IIIB): > 40 µM
COC[C@@H](c1ccc(C(F)(F)F)cc1)N1CCN(C2(C)CCN(C(=O)c3c(C)ncnc3C)CC2)C[C@@H]1C  EC90 (viral load; HIV-infected patients; week 2): 0.056 µg/mL (≈ 0.105 µM)
Cc1cccc(CNC(=O)c2cn(CCNC(=O)c3ccccc3Sc3c([N+](=O)[O-])ncn3C)c3cc4c(cc3c2=O)OCO4)n1  EC50 (viral replication; human PBMC, 92RW009): 15.5 ± 6.43 µM
COc1cnc(-n2cnc(C)n2)c2[nH]cc(C(=O)C(=O)N3CCN(C(=O)c4ccccc4)CC3)c12  IC50 (viral replication, inhibitor, pseudovirus neutralization; TZM-bl, 398-F1_F6_20; 48 h): 0.372 µM
O=c1c(O[C@@H]2O[C@H](CO)[C@@H](O)[C@H](O)[C@H]2O)c(-c2ccc(O)c(O)c2)oc2cc(O)cc(O)c12  IC50 (viral infection; TZM-bl, NL4-3 (CXCR4-tropic); 48 h): > 100 µM
N#Cc1ccc(Nc2ncc(Cc3ccc(-c4ccccc4)cc3)o2)cc1  antiviral activity (protection from infection; MT-2, IIIB wild type; concentration not given): inactive
O=C(/C=C/c1ccc(O)c(O)c1)O[C@@H]1C[C@@](O)(C(=O)O)C[C@@H](O)[C@@H]1O  IC50 (viral infection; TZM-bl, NL4-3 (CXCR4-tropic); 48 h): > 100 µM
O=C(N/N=C/c1ccccc1O)c1cnccn1  EC50 (viral cytopathic effect, MTT; MT4, IIIB): > 40 µM
CCCC(=O)OCSc1ccccc1C(=O)NCCn1cc(C(=O)NCc2cc(C)ccn2)c(=O)c2cc3c(cc21)OCO3  EC50 (virus-induced cytopathic effect, inhibitor, XTT; CEM-SS, RF; 6 days): 0.78 ± 0.23 µM
OC[C@H]1O[C@@H](Oc2cc3c(O)cc(O)cc3[o+]c2-c2ccc(O)c(O)c2)[C@H](O)[C@@H](O)[C@@H]1O  IC50 (viral infection; TZM-bl, NL4-3 (CXCR4-tropic); 48 h): 65.8 µM
CCCC(=O)OCSc1ccccc1C(=O)NCCn1cc(C(=O)NCc2ccc(C)cn2)c(=O)c2cc3c(cc21)OCO3  EC50 (virus-induced cytopathic effect, inhibitor, XTT; CEM-SS, RF; 6 days): 0.67 ± 0.08 µM
C=CC/N=c1/scc(-c2ccccc2Br)n1/N=C/c1ccccn1  EC50 (viral cytopathic effect, MTT; MT4, IIIB): > 1 µM
CCCC(=O)OCSc1ccccc1C(=O)NCCn1ccc(=O)c2cc(C)ccc21  EC50 (virus-induced cytopathic effect, inhibitor, XTT; CEM-SS, RF; 6 days): 0.85 ± 1.46 µM
OC[C@H]1O[C@@H](Oc2cc3c(O[C@@H]4O[C@H](CO)[C@@H](O)[C@H](O)[C@H]4O)cc(O)cc3[o+]c2-c2ccc(O)c(O)c2)[C@H](O)[C@@H](O)[C@@H]1O  IC50 (viral infection; TZM-bl, NL4-3 (CXCR4-tropic); 48 h): > 100 µM
O=C(N/N=C/c1c(O)ccc2ccccc12)c1n[nH]c2c1CCC2  EC50 (viral cytopathic effect, MTT; MT4, IIIB): > 17 µM

For quick reference, copied from above:
C=CC/N=c1/scc(-c2ccccc2Br)n1/N=C/c1ccccn1  EC50 (viral cytopathic effect, MTT; MT4, IIIB): > 1 µM
COc1cc(/C=C/C(=O)O)ccc1O  IC50 (viral infection; TZM-bl, BaL (CCR5-tropic); 48 h): > 100 µM
COC[C@@H](c1ccc(C(F)(F)F)cc1)N1CCN(C2(C)CCN(C(=O)c3c(C)ncnc3C)CC2)C[C@@H]1C  EC90 (viral load; HIV-infected patients; week 2): 0.056 µg/mL (≈ 0.105 µM)
CCCC(=O)OCSc1ccccc1C(=O)NCCn1cc(C(=O)NCc2ccc(C)cn2)c(=O)c2cc3c(cc21)OCO3  EC50 (virus-induced cytopathic effect, inhibitor, XTT; CEM-SS, RF; 6 days): 0.67 ± 0.08 µM
